Earlier results that unrelated publications cite.
Each numbered part shows a few of the values that one paper quotes. Numbers after ± are the reported error. In brackets after ≈: the same amount, converted by molar mass.
Chain of UniProt P25084 (whole entry, looked up): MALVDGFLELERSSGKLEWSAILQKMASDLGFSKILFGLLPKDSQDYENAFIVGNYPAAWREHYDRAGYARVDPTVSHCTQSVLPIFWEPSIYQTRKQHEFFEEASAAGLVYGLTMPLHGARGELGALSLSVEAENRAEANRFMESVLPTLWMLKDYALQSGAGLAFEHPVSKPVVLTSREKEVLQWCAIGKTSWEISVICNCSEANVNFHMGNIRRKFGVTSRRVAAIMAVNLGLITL

Block 1 — organism: Escherichia coli
Structure (SMILES) | MIC [µM]
C[C@H](NC(=O)CNC(=O)[C@@H]1CCCN1C(=O)[C@H](CO)NC(=O)CNC(=O)CN)C(=O)N[C@@H](CCCCN)C(=O)N[C@@H](CCCCN)C(=O)N[C@@H](CC(N)=O)C(=O)N[C@H](C(=O)N[C@@H](CCCCN)C(=O)N[C@@H](CO)C(=O)N[C@@H](C)C(=O)N[C@@H](CS)C(=O)NCC(=O)N[C@@H](CCCCN)C(=O)N[C@@H](C)C(=O)N[C@@H](CS)C(=O)N[C@@H](C)C(=O)N[C@@H](CS)C(=O)N[C@@H](Cc1c[nH]cn1)C(=O)O)[C@@H](C)O | > 128
CC[C@H](C)[C@H](NC(=O)[C@@H](NC(=O)[C@H](C)NC(=O)[C@@H](NC(=O)[C@H](C)NC(=O)[C@@H]1CCCN1C(=O)CNC(=O)[C@H](C)NC(=O)[C@H](CC(N)=O)NC(=O)[C@H](CCCCN)NC(=O)[C@@H](NC(=O)[C@H](C)NC(=O)[C@H](CC(N)=O)NC(=O)[C@H](CCCNC(=N)N)NC(=O)[C@@H](NC(=O)[C@H](CCCNC(=N)N)NC(=O)[C@H](CCCNC(=N)N)NC(=O)[C@@H](NC(=O)[C@@H](NC(=O)[C@H](CCCCN)NC(=O)[C@H](CCC(=O)O)NC(=O)[C@H](CC(C)C)NC(=O)[C@H](CCCCN)NC(=O)[C@H](CCCCN)NC(=O)[C@H](CC(C)C)NC(=O)[C@@H]1CCCN1C(=O)[C@H](CCCCN)NC(=O)[C@H](Cc1c[nH]c2ccccc12)NC(=O)[C@@H](N)CCCNC(=N)N)C(C)C)C(C)C)C(C)C)C(C)C)C(C)C)C(C)C)C(=O)NCC(=O)N[C@@H](CC(=O)O)C(=O)O | 2 (≈ 6.94 µg/mL)
CC[C@H](C)[C@H](NC(=O)[C@H](CC(C)C)NC(=O)[C@H](CCCNC(=N)N)NC(=O)CNC(=O)CNC(=O)[C@H](CCCCN)NC(=O)[C@H](CCCNC(=N)N)NC(=O)[C@H](CC(C)C)NC(=O)[C@H](CC(C)C)NC(=O)[C@H](CCCNC(=N)N)NC(=O)[C@@H](NC(=O)[C@H](CC(C)C)NC(=O)[C@@H](N)CO)[C@@H](C)O)C(=O)NCC(=O)N[C@@H](Cc1c[nH]c2ccccc12)C(=O)N[C@@H](CCCNC(=N)N)C(=O)N[C@@H](Cc1c[nH]c2ccccc12)C(=O)N[C@@H](CCC(=O)O)C(=O)N[C@@H](CCCCN)C(=O)N[C@H](C(=O)N[C@@H](CCCNC(=N)N)C(=O)N[C@@H](CC(N)=O)C(=O)N[C@@H](Cc1c[nH]c2ccccc12)C(=O)N[C@H](C(=O)N[C@@H](CCCNC(=N)N)C(=O)N[C@@H](CCCNC(=N)N)C(=O)N[C@H](C(=O)N[C@H](C(=O)N[C@@H](CCC(=O)O)C(=O)N[C@@H](CCCCN)C(=O)N[C@@H](CCCNC(=N)N)C(=O)N[C@@H](CCCCN)C(=O)N1CCC[C@H]1C(=O)N[C@@H](CC(N)=O)C(=O)N[C@@H](CCCCN)C(=O)O)[C@@H](C)CC)[C@@H](C)CC)[C@@H](C)CC)[C@@H](C)O | 4 (≈ 17.7 µg/mL)

Other studies, line by line
Compound | target or system | assay | test system | setting | endpoint | result
CC(=O)OC1C(=O)C2(C)C(O)CC3OCC3(OC(C)=O)C2C(OC(=O)c2cccc(OC(F)(F)F)c2)C2(O)CC(OC(=O)C(O)C(C=C(C)C)NC(=O)OC(C)(C)C)C(C)=C1C2(C)C (stereo not shown) | CFPAC-1 | cytotoxicity | – | – | IC50 | 0.57 nM
O=C(CCCOc1cccc(Br)c1)N[C@H]1CCSC1=O | lasR (Pseudomonas aeruginosa, UniProt P25084) | rsaL-gfp reporter, partial agonist | – | 100 nM | activation | ~75%
CCC(=O)OC1C(=O)C2(C)C(O)CC3OCC3(OC(C)=O)C2C(OC(=O)c2cccc(OC(F)F)c2)C2(O)CC(OC(=O)C(O)C(C=C(C)C)NC(=O)OC(C)(C)C)C(C)=C1C2(C)C (stereo not shown) | CFPAC-1 | cytotoxicity | – | – | IC50 | 0.42 nM
COc1ccc(Nc2nc(Nc3ccc(OCC[18F])cc3)ncc2Br)cc1 | – | – | S180 tumour-bearing mice, kidney | intravenous, 15 min | tissue uptake | 1.62 ± 0.23 %ID/g

For quick reference, copied from above (block 1):
Structure (SMILES) | MIC [µM]
CC[C@H](C)[C@H](NC(=O)[C@H](CC(C)C)NC(=O)[C@H](CCCNC(=N)N)NC(=O)CNC(=O)CNC(=O)[C@H](CCCCN)NC(=O)[C@H](CCCNC(=N)N)NC(=O)[C@H](CC(C)C)NC(=O)[C@H](CC(C)C)NC(=O)[C@H](CCCNC(=N)N)NC(=O)[C@@H](NC(=O)[C@H](CC(C)C)NC(=O)[C@@H](N)CO)[C@@H](C)O)C(=O)NCC(=O)N[C@@H](Cc1c[nH]c2ccccc12)C(=O)N[C@@H](CCCNC(=N)N)C(=O)N[C@@H](Cc1c[nH]c2ccccc12)C(=O)N[C@@H](CCC(=O)O)C(=O)N[C@@H](CCCCN)C(=O)N[C@H](C(=O)N[C@@H](CCCNC(=N)N)C(=O)N[C@@H](CC(N)=O)C(=O)N[C@@H](Cc1c[nH]c2ccccc12)C(=O)N[C@H](C(=O)N[C@@H](CCCNC(=N)N)C(=O)N[C@@H](CCCNC(=N)N)C(=O)N[C@H](C(=O)N[C@H](C(=O)N[C@@H](CCC(=O)O)C(=O)N[C@@H](CCCCN)C(=O)N[C@@H](CCCNC(=N)N)C(=O)N[C@@H](CCCCN)C(=O)N1CCC[C@H]1C(=O)N[C@@H](CC(N)=O)C(=O)N[C@@H](CCCCN)C(=O)O)[C@@H](C)CC)[C@@H](C)CC)[C@@H](C)CC)[C@@H](C)O | 4 (≈ 17.7 µg/mL)
